Assay results gathered from unrelated publications.
“And” joins repeats or separate records; there may be more than shown. Numbers after ± are the reported error.

SMILES | target or system | assay | test system | setting | scale | quantity | result
O=C(CN1C(=O)C2(CCN(C(=O)c3ccc4[nH]ncc4n3)CC2)c2c(Br)cccc21)NCC(F)(F)F | – | – | male C57BL/6 mouse, plasma | oral, 10 mg/kg | – | half-life | 2.2 h
COc1ccc(C([O-])=CC(=O)c2ccc(C(C)(C)C)cc2)cc1.Cc1ccc(C(C)C)cc1.[Cl-].[Ru+2] | – | MLCT absorbance and HPLC | water, PBS, Opti-MEM | 37 °C | – | stability onset time | ≤ 6 h
CCCCCCCCCCCCCCCC(=O)N[C@@H](CCC(=O)NCCOCCOCCC(=O)NCCOCCOCCC(=O)NCCCC[C@H](NC(=O)[C@H](CC(=O)O)NC(=O)[C@H](CC(C)C)NC(=O)[C@H](Cc1ccc(O)cc1)NC(=O)[C@H](CCCCN)NC(=O)[C@H](CO)NC(=O)[C@H](Cc1ccc(O)cc1)NC(=O)[C@H](CC(=O)O)NC(=O)[C@H](CO)NC(=O)[C@@H](NC(=O)[C@H](Cc1ccccc1)NC(=O)[C@@H](NC(=O)CNC(=O)[C@H](CCC(N)=O)NC(=O)[C@@H](CO)NC(=O)[C@@H](N)Cc1c[nH]cn1)[C@@H](C)O)[C@@H](C)O)C(=O)N[C@@H](CCCNC(=N)N)C(=O)N[C@@H](CCCNC(=N)N)C(=O)N[C@@H](C)C(=O)N[C@@H](CCC(N)=O)C(=O)N[C@@H](CC(=O)O)C(=O)N[C@@H](Cc1ccccc1)C(=O)N[C@H](C(=O)N[C@@H](CCC(N)=O)C(=O)N[C@@H](Cc1c[nH]c2ccccc12)C(=O)N[C@@H](CC(C)C)C(=O)N[C@@H](CC(C)C)C(=O)N[C@@H](CC(N)=O)C(=O)N[C@H](C(=O)NCC(=O)NCC(=O)N1CCC[C@H]1C(=O)N[C@@H](CO)C(=O)N[C@@H](CO)C(=O)NCC(=O)N[C@@H](C)C(=O)N1CCC[C@H]1C(=O)N1CCC[C@H]1C(=O)N1CCC[C@H]1C(=O)N[C@@H](CO)C(N)=O)[C@@H](C)O)C(C)C)C(=O)O | – | – | rhesus monkey, both sexes, plasma | subcutaneous, 20 µg/kg, multiple doses, day 1 | – | MRT | 6.04 ± 1.51 h
O=C1NC2(CC2)COc2ncc(F)cc2[C@H]2COCCN2c2ccn3ncc1c3n2 | – | – | Sprague-Dawley rat, male, serum | oral, 2.5 mg/kg/day, 4 weeks daily, end of recovery period | – | pancreatic amylase activity | 2070 ± 208 U/L
CSCC[C@H](NC(=O)CNC(=O)[C@H](CCCCN)NC(=O)[C@H](CC(C)C)NC(=O)[C@@H]1CCCN1C(=O)[C@H](CO)NC(=O)[C@H](Cc1c[nH]cn1)NC(=O)[C@H](Cc1c[nH]c2ccccc12)NC(=O)[C@H](CCCNC(=N)N)NC(=O)[C@H](CC(C)C)NC(=O)[C@H](CCCNC(=N)N)NC(=O)[C@H](Cc1c[nH]c2ccccc12)NC(=O)[C@H](CS)NC(=O)CCCCCNC(=O)CN1CCN(CC(=O)O)CCN(CC(=O)O)CCN(CC(=O)O)CC1)C(=O)O [copper-64 labelled] | – | ex vivo biodistribution | male C57BL/6J mice, kidney | intravenous, 1.85 MBq, 0.5 h, B16-F10 tumour-bearing | – | tissue uptake | 53.2 %ID/g
CC(C)C[C@H](NC(=O)[C@H](CCCNC(=N)N)NC(=O)[C@H](Cc1ccccc1)NC(=O)[C@H](Cc1ccccc1)NC(=O)[C@@H](N)[C@@H](C)O)C(=O)N[C@@H](Cc1ccccc1)C(=O)N[C@@H](CC(N)=O)C(=O)N[C@@H](CCCNC(=N)N)C(=O)N[C@@H](C)C(=O)N[C@@H](CCCCN)C(=O)N[C@@H](CCCNC(=N)N)C(=O)N[C@@H](Cc1c[nH]cn1)C(=O)N[C@@H](Cc1c[nH]cn1)C(=O)NCC(=O)N[C@@H](Cc1ccc(O)cc1)C(=O)N[C@@H](CCCCN)C(=O)N[C@@H](CCCNC(=N)N)C(=O)N[C@@H](CCCCN)C(=O)N[C@@H](Cc1ccccc1)C(=O)N[C@@H](Cc1c[nH]cn1)C(=O)O | – | HPLC-UV | human saliva | 6 h, 37 °C, together with: initial 1 mg/mL | – | peptide concentration | 0.119 mg/mL
Cc1ccc(N2CC(N(C)C)C2)cc1C(=O)N[C@H](C)c1cc(-c2cnn(C)c2)nc2ccccc12 | Vero E6 | – | – | 31.25 µM | – | viability | 90.7% and 92.9% and 91.1%
CC[C@H](C)[C@H](NC(=O)[C@H](CCCCN)NC(=O)CNC(=O)[C@H](CC(C)C)NC(=O)[C@H](Cc1ccccc1)NC(=O)[C@H](CCCCN)NC(=O)[C@H](CO)NC(=O)[C@H](Cc1ccccc1)NC(=O)[C@H](Cc1c[nH]c2ccccc12)NC(=O)[C@H](CCC(N)=O)NC(=O)[C@@H](NC(=O)[C@H](Cc1ccccc1)NC(=O)CCCCCNC(=O)CN1CCN(CC(=O)O)CCN(CC(=O)O)CCN(CC(=O)O)CC1)C(C)C)C(=O)N[C@@H](CCC(=O)O)C(=O)N1CCC[C@H]1C(=O)N[C@@H](CC(=O)O)C(=O)N[C@H](C(=O)N[C@@H](CO)C(=O)N[C@@H](CCC(N)=O)C(=O)N[C@H](C(=O)N[C@@H](CCC(N)=O)C(=O)N[C@@H](CC(=O)O)C(=O)N1CCC[C@H]1C(=O)N[C@@H](CC(N)=O)C(=O)N[C@@H](CC(=O)O)C(=O)N[C@@H](CCC(N)=O)C(=O)N[C@@H](Cc1ccc(O)cc1)C(=O)N[C@@H](CCC(=O)O)C(=O)N1CCC[C@H]1C(=O)N[C@@H](Cc1ccccc1)C(=O)O)C(C)C)C(C)C [copper-64 labelled] | – | – | C57BL/6 mice, liver | vehicle, intratracheal instillation | – | tissue uptake | 9.81 ± 0.5 %ID/g
CC[C@H](C)[C@H](NC(=O)[C@H](Cc1c[nH]c2ccccc12)NC(=O)c1ccccc1)C(=O)N[C@H](C(=O)N[C@@H](Cc1ccc(O)cc1)C(=O)N[C@@H](CCCCN)C(=O)N[C@@H](Cc1c[nH]c2ccccc12)C(=O)N1CCC[C@@H]1C(=O)N[C@@H](CCCNC(=N)N)C(=O)N[C@@H](CCCCN)C(=O)N[C@H](C(=O)N[C@H](C(=O)N[C@@H](CCCNC(=N)N)C(=O)N[C@@H](Cc1ccc(O)cc1)C(=O)N[C@@H](Cc1c[nH]c2ccccc12)C(=O)N[C@H](C(=O)NCC(=O)N[C@@H](CCCCN)C(=O)N[C@@H](CCCNC(=N)N)C(N)=O)[C@@H](C)O)C(C)C)C(C)C)C(C)C | – | circular dichroism | phosphate buffer | 30 µM, pH 6.5 | – | melting temperature | > 100 °C
CC[C@H](C)[C@H](NC(=O)[C@H](Cc1c[nH]cn1)NC(=O)[C@H](CCCCN)NC(=O)[C@H](C)NC(=O)[C@H](C)NC(=O)[C@H](Cc1c[nH]cn1)NC(=O)[C@H](CCCNC(=N)N)NC(=O)CNC(=O)[C@H](Cc1c[nH]cn1)NC(=O)[C@H](CCCCN)NC(=O)[C@H](Cc1ccccc1)NC(=O)[C@@H](NC(=O)[C@H](CO)NC(=O)CNC(=O)[C@H](Cc1c[nH]c2ccccc12)NC(=O)CN)[C@@H](C)CC)C(=O)NCC(=O)N[C@@H](Cc1c[nH]cn1)C(=O)N[C@@H](C)C(=O)N[C@@H](C)C(=O)N[C@H](C(=O)N[C@@H](CC(N)=O)C(=O)N[C@@H](Cc1c[nH]cn1)C(=O)N[C@@H](Cc1ccc(O)cc1)C(=O)N[C@@H](CC(C)C)C(N)=O)C(C)C | – | – | zebrafish embryos 4 hpf, E3 medium | 1 h | – | acute toxic concentration | 25 µM
COc1ccc(CNc2ccc3c(c2)S(=O)(=O)C=C3)cc1 | – | – | male C57BL/6 mice, blood | intraperitoneal, 10 mg/kg, day 8, group average | – | mean corpuscular haemoglobin concentration | 290 g/L
CSCC[C@H](NC(=O)[C@@H](NC(=O)[C@H](CC(C)C)NC(=O)[C@@H](NC(=O)[C@H](Cc1c[nH]cn1)NC(=O)CCCCCNC(=O)[C@H](CCCNC(=N)N)NC(=O)[C@H](CCCNC(=N)N)NC(=O)[C@H](CCCNC(=N)N)NC(=O)[C@H](CCC(N)=O)NC(=O)[C@H](CCCNC(=N)N)NC(=O)[C@H](CCCNC(=N)N)NC(=O)[C@H](CCCCN)NC(=O)[C@H](CCCCN)NC(=O)[C@H](CCCNC(=N)N)NC(=O)CNC(=O)[C@@H](N)Cc1ccc(O)cc1)C(C)C)C(C)C)C(=O)N[C@@H](CS)C(=O)N[C@@H](C)C(=O)N[C@H](C(N)=O)[C@@H](C)O | – | – | C57BL/6J mice | Alzet osmotic pump, 3 mg/kg, 8 weeks | – | serum Albumin | 2.9 g/dL and 2.7 g/dL and 2.8 g/dL
CC(C)[C@@H]1NC(=O)CNC(=O)[C@H](CC(N)=O)NC(=O)[C@H](CCCNC(=N)N)NC(=O)[C@H](Cc2ccc(O)cc2)NC(=O)[C@H](C(C)C)NC(=O)[C@@H](NC(=O)[C@@H](NC(=O)[C@H](CC(N)=O)NC(=O)[C@H](Cc2c[nH]c3ccccc23)NC(=O)[C@H](C)NC(=O)[C@H](Cc2ccccc2)NC(=O)CNC(=O)[C@H](CCCCN)NC(=O)[C@H](Cc2ccccc2)NC(=O)[C@H](Cc2ccccc2)NC(=O)[C@H](CCCCN)NC(=O)OCC2c3ccccc3-c3ccccc32)C(C)C)CSSC[C@@H](C(=O)N[C@@H](Cc2c[nH]cn2)C(=O)N[C@@H](CCCNC(=N)N)C(=O)N[C@@H](CCCNC(=N)N)C(=O)N[C@@H](C)C(=O)N[C@@H](CC(N)=O)C(N)=O)NC(=O)[C@H](C(C)C)NC(=O)[C@H](CCCNC(=N)N)NC1=O | – | – | ICR mouse | ip, 5 mg/kg | direction not given | breathing score | 0
N=C(N)NCCC[C@@H](NC(=O)[C@H](N)Cc1c[nH]c2ccccc12)C(=O)N[C@H](CCCCN)C(=O)N[C@H](Cc1c[nH]c2ccccc12)C(=O)N[C@H](CCCNC(=N)N)C(=O)N[C@H](CCCCN)C(=O)N[C@H](Cc1c[nH]c2ccccc12)C(=O)N[C@H](CCCNC(=N)N)C(=O)N[C@H](CCCCN)C(=O)N[C@H](Cc1c[nH]c2ccccc12)C(=O)N[C@H](CCCNC(=N)N)C(=O)N[C@H](CCCCN)C(N)=O | – | – | mouse, urine | 20 mg/kg | – | NGAL level | 32.4 ng/mL
Cc1ccc(OCCN(C)C)cc1C(=O)N[C@H](C)c1cc(-c2ccc(C#N)nc2)nc2ccccc12 | Vero E6 | – | – | 15.62 µM | – | viability | 85.2% and 101%

Excerpt of the above:
SMILES | target or system | assay | test system | setting | scale | quantity | result
CC(C)C[C@H](NC(=O)[C@H](CCCNC(=N)N)NC(=O)[C@H](Cc1ccccc1)NC(=O)[C@H](Cc1ccccc1)NC(=O)[C@@H](N)[C@@H](C)O)C(=O)N[C@@H](Cc1ccccc1)C(=O)N[C@@H](CC(N)=O)C(=O)N[C@@H](CCCNC(=N)N)C(=O)N[C@@H](C)C(=O)N[C@@H](CCCCN)C(=O)N[C@@H](CCCNC(=N)N)C(=O)N[C@@H](Cc1c[nH]cn1)C(=O)N[C@@H](Cc1c[nH]cn1)C(=O)NCC(=O)N[C@@H](Cc1ccc(O)cc1)C(=O)N[C@@H](CCCCN)C(=O)N[C@@H](CCCNC(=N)N)C(=O)N[C@@H](CCCCN)C(=O)N[C@@H](Cc1ccccc1)C(=O)N[C@@H](Cc1c[nH]cn1)C(=O)O | – | HPLC-UV | human saliva | 6 h, 37 °C, together with: initial 1 mg/mL | – | peptide concentration | 0.119 mg/mL
Cc1ccc(N2CC(N(C)C)C2)cc1C(=O)N[C@H](C)c1cc(-c2cnn(C)c2)nc2ccccc12 | Vero E6 | – | – | 31.25 µM | – | viability | 90.7% and 92.9% and 91.1%
